Assay results of several laboratories.
Compare with care: the assays were run in different laboratories. ± marks the error that the study gave.
Sequence of UniProt P08172 (whole entry, looked up): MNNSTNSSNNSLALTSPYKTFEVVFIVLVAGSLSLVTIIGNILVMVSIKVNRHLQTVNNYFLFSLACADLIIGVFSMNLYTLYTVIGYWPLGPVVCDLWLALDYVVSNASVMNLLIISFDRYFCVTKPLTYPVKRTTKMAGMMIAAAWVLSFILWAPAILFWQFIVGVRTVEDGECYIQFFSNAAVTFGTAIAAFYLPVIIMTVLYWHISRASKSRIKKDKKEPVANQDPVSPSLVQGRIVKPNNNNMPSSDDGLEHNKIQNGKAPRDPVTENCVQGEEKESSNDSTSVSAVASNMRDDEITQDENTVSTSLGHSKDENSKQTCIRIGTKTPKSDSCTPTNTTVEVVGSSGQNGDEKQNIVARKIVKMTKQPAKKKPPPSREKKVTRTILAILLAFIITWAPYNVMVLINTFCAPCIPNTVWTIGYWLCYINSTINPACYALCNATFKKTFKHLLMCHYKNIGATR
Sequence of UniProt P41143 (whole entry, looked up): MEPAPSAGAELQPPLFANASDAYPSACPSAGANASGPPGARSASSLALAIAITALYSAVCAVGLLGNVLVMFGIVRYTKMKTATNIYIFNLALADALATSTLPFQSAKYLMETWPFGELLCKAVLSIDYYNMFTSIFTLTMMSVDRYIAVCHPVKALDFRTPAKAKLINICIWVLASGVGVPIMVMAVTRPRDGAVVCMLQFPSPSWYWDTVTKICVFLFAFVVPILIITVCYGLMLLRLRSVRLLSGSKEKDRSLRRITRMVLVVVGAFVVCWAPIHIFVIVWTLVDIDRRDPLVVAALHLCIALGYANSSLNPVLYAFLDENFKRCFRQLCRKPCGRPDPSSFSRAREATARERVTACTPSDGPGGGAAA
Sequence of UniProt P49841 (whole entry, looked up): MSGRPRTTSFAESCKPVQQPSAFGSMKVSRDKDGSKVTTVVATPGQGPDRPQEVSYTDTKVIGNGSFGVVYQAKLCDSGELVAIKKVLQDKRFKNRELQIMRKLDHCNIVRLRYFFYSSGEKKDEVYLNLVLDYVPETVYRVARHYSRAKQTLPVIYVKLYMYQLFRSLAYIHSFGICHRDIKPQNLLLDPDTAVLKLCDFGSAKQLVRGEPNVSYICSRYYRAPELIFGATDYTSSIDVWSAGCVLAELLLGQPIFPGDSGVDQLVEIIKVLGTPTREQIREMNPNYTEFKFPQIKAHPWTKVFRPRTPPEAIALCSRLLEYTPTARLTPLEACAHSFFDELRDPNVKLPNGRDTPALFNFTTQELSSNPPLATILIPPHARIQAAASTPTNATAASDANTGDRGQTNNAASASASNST
Sequence of UniProt P00761 (whole entry, looked up): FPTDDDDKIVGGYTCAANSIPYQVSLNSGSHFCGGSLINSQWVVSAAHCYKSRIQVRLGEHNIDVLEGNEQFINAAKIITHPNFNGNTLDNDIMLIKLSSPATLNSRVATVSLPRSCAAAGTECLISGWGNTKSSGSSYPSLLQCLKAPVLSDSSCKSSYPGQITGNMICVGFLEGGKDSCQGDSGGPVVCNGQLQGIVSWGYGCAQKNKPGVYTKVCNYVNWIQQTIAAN
Sequence of UniProt P29117 (whole entry, looked up): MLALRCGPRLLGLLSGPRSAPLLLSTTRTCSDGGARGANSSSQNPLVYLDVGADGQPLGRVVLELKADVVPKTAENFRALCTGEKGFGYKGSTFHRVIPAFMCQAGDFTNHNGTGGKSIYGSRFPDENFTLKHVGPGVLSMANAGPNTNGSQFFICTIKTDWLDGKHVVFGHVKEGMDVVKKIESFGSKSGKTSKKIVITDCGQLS
Sequence of UniProt Q9GZQ6 (whole entry, looked up): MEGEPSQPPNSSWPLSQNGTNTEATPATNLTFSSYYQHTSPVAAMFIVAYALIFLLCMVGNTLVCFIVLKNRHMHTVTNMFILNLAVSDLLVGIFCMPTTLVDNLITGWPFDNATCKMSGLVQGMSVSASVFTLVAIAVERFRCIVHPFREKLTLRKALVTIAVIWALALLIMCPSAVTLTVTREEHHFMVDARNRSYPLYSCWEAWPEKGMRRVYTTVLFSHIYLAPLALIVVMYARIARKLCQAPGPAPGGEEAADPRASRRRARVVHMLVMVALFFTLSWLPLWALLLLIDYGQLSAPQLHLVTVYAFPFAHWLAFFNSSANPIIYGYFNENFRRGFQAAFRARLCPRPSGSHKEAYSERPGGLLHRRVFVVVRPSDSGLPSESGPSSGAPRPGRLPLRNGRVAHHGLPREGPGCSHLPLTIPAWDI
Sequence of UniProt Q06GJ0 (whole entry, unmodified, looked up): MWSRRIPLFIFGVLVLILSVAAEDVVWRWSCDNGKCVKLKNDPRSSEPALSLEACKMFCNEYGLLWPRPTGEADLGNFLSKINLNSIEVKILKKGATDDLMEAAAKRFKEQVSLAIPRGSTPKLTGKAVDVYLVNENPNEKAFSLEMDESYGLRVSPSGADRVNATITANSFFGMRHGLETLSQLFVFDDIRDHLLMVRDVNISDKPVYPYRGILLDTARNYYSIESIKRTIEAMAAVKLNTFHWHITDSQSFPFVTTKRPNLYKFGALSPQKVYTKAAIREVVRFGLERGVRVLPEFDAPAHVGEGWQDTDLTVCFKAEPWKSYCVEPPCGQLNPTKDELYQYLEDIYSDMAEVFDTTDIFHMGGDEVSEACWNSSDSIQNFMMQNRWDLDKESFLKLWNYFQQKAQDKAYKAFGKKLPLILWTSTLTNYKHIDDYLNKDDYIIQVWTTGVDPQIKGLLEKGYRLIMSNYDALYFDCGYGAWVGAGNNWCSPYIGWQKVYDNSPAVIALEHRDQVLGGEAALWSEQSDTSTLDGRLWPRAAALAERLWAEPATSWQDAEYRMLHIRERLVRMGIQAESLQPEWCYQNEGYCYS
Sequence of UniProt P33533 (whole entry, looked up): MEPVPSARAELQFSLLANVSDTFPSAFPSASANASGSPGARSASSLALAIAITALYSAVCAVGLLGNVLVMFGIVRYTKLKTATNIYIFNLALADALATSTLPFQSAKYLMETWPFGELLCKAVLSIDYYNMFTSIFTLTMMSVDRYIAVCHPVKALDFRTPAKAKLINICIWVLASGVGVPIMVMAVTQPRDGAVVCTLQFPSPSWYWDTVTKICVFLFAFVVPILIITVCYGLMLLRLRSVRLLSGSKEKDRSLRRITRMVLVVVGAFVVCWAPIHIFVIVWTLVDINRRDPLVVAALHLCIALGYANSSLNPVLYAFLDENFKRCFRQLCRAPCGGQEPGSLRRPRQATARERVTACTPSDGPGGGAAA
Sequence of UniProt O15297 (whole entry, looked up): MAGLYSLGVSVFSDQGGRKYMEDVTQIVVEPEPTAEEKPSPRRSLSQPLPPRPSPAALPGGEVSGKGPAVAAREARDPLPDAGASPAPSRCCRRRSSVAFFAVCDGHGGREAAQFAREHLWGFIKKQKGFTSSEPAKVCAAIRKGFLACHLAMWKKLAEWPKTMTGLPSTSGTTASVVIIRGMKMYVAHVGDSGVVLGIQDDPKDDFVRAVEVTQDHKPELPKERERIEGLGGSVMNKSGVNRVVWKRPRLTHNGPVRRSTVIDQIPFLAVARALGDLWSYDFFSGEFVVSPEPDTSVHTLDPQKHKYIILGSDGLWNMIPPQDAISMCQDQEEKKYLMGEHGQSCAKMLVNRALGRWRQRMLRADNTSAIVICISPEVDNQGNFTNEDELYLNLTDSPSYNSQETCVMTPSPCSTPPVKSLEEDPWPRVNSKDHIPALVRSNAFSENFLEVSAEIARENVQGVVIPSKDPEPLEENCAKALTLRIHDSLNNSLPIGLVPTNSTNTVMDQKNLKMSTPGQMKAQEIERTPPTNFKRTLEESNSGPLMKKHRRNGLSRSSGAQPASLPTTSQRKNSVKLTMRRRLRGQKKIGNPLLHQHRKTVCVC
Sequence of UniProt P22303 (whole entry, looked up): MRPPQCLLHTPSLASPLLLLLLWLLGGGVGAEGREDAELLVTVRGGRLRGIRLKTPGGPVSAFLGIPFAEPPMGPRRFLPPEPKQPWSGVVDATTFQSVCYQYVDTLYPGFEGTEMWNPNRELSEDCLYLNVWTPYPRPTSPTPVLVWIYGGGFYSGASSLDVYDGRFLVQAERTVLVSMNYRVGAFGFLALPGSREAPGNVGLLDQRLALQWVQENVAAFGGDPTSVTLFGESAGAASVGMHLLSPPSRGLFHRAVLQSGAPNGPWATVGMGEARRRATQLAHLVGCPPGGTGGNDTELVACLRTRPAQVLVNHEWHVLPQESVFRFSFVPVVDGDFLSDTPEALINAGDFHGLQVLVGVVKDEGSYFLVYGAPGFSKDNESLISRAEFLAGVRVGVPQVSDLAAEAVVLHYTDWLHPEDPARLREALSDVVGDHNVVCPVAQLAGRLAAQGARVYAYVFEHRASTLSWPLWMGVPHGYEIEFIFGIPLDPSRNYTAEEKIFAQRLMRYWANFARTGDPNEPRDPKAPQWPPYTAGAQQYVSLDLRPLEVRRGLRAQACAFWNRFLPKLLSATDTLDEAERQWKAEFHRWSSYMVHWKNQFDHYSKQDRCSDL
Sequence of UniProt P04062 (whole entry, looked up): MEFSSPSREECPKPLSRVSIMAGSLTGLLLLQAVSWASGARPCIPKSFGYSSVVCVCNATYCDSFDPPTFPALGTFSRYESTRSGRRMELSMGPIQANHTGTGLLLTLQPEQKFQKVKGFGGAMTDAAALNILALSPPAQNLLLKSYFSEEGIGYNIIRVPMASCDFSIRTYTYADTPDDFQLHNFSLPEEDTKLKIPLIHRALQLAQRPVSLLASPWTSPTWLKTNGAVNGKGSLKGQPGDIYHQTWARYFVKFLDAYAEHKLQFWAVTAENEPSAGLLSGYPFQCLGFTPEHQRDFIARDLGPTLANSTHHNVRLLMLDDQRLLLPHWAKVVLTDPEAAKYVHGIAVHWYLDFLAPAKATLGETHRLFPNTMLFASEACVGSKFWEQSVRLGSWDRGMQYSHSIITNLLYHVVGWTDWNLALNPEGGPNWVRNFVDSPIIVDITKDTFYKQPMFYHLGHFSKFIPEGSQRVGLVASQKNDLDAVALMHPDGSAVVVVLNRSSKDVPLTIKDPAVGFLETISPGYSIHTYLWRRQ

| Compound | target | assay | conditions | Ki |
| --- | --- | --- | --- | --- |
| CCCC[C@@H]1NC(=O)[C@H](Cc2ccccc2)NC(=O)CNC(=O)[C@H](NC(=O)[C@@H](N)Cc2ccc(O)cc2)C(C)(C)SSC(C)(C)[C@H](C(=O)N[C@@H](Cc2c[nH]c3ccccc23)C(=O)NCc2cc(C(F)(F)F)cc(C(F)(F)F)c2)NC(=O)[C@@H]2CCCN2C1=O | OPRD1 (Homo sapiens, UniProt P41143) | ligand displacement, radioligand | cell membranes | 720 nM |
| C/C=C/C[C@@H](C)[C@@H](O)[C@H]1C(=O)N[C@@H](CC)C(=O)N(C)C(Cc2ccc(C(=O)NCCCCCCN)cc2)C(=O)N(C)[C@@H](CC(C)C)C(=O)N[C@@H](C(C)C)C(=O)N(C)[C@@H](CC(C)C)C(=O)N[C@@H](C)C(=O)N[C@H](C)C(=O)N(C)[C@@H](CC(C)C)C(=O)N(C)[C@@H](CC(C)C)C(=O)N(C)[C@@H](C(C)C)C(=O)N1C (some centres unmarked) | Peptidyl-prolyl cis-trans isomerase F, mitochondrial (Ppif, Rattus norvegicus, UniProt P29117) | PPIase activity, inhibitor | pH 7.5, 15 °C | 15 nM |
| N=C(N)Nc1cccc(C(=O)NCC2(Nc3ccccc3)CCN(Cc3ccccc3)CC2)c1 | NPFFR1 (Homo sapiens, UniProt Q9GZQ6) | cell-free assay |  | 1620 nM |
| CCCCCCCCNP(=O)(Oc1ccccc1)O[C@@H]1O[C@H](CO)[C@@H](O)[C@H](O)[C@H]1F (some centres unmarked) | GBA1 (Homo sapiens, UniProt P04062) | enzyme activity, irreversible inhibitor | pH 5.5, 37 °C, with: 2,4-dinitrophenyl beta-D-glucopyranoside | 36200 nM |
| CN1CCN(CC(=O)N2CCC(N3CCC(n4c(=O)[nH]c5ccccc54)CC3)CC2)CC(N)C1 (centres unmarked) | CHRM2 (Homo sapiens, UniProt P08172) | ligand displacement, radioligand |  | 1320 nM |
| O=C1c2cccc3cccc(c23)C(=O)N1CCNCCN1C(=O)c2cccc3cccc(c23)C1=O | Chitooligosaccharidolytic beta-N-acetylglucosaminidase (Ostrinia furnacalis, UniProt Q06GJ0, W490A) | inhibitor |  | > 100000 nM |
| Cc1cc(O)cc(C)c1CC(N)C(=O)NC1CCNc2c1cc(Cc1ccccc1)cc2C(C)(C)C (centres unmarked) | Oprd1 (Rattus norvegicus, UniProt P33533) | ligand displacement, radioligand | cell membranes | 3.8 nM |
| CC[C@H](C)[C@@H]1NC(=O)[C@H](CCOP(=O)(O)O)NC(=O)[C@H](CCc2ccccc2)NC(=O)CSC[C@@H](C(N)=O)NC(=O)[C@H](CC(=O)O)NC(=O)[C@H](CC(=O)O)NC(=O)[C@H](Cc2ccc(OP(=O)(O)O)cc2)NC1=O | PPM1D (Homo sapiens, UniProt O15297) | phosphatase activity, inhibitor, malachite green | with: ATM pS1981 peptide | 19000 ± 2000 nM |
| O=c1ccoc2ccc(OCCCCN3CCOCC3)cc12 | ACHE (Homo sapiens, UniProt P22303) | enzyme activity, inhibitor, Ellman |  | 18600 nM |
| CCCCCCCCCCCCCC(=O)NCC(=O)NCC(=O)N[C@@H](CO)C(=O)NCC(=O)N[C@@H](CO)C(=O)NCC(=O)N[C@H]1CSSC[C@@H]2NC(=O)CNC(=O)[C@H](C)NC(=O)[C@H](CC(C)C)NC(=O)[C@@H]3CSSC[C@@H](C(=O)NCC(=O)O)NC(=O)[C@H](Cc4ccccc4)NC(=O)CNC(=O)[C@H](CC(N)=O)NC(=O)[C@@H]4CCCN4C(=O)CNC(=O)[C@H](CSSC[C@H](NC(=O)[C@H](CCCNC(=N)N)NC(=O)[C@H](CCSC)NC(=O)[C@H](CC(C)C)NC(=O)[C@H]([C@@H](C)CC)NC(=O)[C@H](CCCNC(=N)N)NC(=O)[C@@H]4CCCN4C1=O)C(=O)N[C@@H](CCCCN)C(=O)N[C@@H](CCC(N)=O)C(=O)N[C@@H](CC(=O)O)C(=O)N[C@@H](CO)C(=O)N[C@@H](CC(=O)O)C(=O)N3)NC(=O)[C@H](C(C)C)NC2=O | Trypsin (Sus scrofa, UniProt P00761) | enzyme activity, inhibitor, fluorescence | with preincubation | 0.1 nM |
| CC(C)=CCCC1(C)C=Cc2c(ccc3cc(-c4cc(O)cc(O)c4CC=C(C)C)oc23)O1 (centres unmarked) | GSK3B (Homo sapiens, UniProt P49841) | kinase activity, Kinase-Glo, Dixon plot | competitive with ATP, with: substrate 25 µM constant | 5540 nM |

Excerpt of the above:
| Compound | target | assay | conditions | Ki |
| --- | --- | --- | --- | --- |
| Cc1cc(O)cc(C)c1CC(N)C(=O)NC1CCNc2c1cc(Cc1ccccc1)cc2C(C)(C)C (centres unmarked) | Oprd1 (Rattus norvegicus, UniProt P33533) | ligand displacement, radioligand | cell membranes | 3.8 nM |
